Results from different studies.
Parts stem from different laboratories: compare values within a part only.
UniProt P23458, sequence (whole entry, looked up): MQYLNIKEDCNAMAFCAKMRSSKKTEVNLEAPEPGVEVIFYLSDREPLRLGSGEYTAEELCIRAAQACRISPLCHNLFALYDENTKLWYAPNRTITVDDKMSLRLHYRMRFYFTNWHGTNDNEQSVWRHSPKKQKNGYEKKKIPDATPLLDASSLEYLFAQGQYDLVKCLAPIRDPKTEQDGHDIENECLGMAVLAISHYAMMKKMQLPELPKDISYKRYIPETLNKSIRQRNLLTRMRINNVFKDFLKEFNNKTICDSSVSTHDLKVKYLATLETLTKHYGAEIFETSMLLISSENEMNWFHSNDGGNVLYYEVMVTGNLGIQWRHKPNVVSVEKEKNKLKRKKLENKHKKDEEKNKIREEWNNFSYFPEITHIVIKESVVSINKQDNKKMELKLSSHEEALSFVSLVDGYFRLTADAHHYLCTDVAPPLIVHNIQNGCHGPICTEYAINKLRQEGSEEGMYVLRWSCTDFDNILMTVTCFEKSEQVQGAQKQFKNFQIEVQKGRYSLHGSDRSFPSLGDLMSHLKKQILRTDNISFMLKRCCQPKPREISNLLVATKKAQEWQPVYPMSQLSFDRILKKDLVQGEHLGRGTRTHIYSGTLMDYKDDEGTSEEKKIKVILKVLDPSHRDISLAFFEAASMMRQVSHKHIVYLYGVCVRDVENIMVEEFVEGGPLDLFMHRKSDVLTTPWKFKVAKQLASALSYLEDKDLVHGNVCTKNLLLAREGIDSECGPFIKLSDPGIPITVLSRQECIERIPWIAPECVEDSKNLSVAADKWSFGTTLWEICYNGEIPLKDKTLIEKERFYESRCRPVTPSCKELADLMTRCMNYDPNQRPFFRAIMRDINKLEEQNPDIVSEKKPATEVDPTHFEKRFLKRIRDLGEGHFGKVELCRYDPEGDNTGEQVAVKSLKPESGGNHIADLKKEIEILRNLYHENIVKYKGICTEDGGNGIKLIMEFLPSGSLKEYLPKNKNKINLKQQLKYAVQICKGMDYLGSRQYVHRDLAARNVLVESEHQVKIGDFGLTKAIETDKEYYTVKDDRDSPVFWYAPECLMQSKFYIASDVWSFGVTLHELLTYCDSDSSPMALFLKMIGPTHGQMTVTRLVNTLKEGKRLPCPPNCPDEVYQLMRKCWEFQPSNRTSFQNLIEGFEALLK
UniProt P0C1S8, sequence (whole entry, looked up): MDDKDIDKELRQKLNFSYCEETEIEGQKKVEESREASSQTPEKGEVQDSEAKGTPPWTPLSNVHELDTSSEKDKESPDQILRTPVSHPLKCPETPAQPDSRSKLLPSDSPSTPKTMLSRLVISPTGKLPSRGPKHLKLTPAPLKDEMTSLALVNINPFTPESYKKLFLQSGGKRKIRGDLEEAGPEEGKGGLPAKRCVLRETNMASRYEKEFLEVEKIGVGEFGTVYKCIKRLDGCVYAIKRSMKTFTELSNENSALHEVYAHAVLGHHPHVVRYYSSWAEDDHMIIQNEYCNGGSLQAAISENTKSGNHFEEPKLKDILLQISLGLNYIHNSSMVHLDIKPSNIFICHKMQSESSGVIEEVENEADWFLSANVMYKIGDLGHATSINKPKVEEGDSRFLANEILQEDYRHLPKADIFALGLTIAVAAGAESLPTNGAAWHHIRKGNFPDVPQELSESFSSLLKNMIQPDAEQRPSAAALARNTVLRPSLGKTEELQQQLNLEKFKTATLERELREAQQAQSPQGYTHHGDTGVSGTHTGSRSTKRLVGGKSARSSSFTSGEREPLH
UniProt Q15569, sequence (whole entry, looked up): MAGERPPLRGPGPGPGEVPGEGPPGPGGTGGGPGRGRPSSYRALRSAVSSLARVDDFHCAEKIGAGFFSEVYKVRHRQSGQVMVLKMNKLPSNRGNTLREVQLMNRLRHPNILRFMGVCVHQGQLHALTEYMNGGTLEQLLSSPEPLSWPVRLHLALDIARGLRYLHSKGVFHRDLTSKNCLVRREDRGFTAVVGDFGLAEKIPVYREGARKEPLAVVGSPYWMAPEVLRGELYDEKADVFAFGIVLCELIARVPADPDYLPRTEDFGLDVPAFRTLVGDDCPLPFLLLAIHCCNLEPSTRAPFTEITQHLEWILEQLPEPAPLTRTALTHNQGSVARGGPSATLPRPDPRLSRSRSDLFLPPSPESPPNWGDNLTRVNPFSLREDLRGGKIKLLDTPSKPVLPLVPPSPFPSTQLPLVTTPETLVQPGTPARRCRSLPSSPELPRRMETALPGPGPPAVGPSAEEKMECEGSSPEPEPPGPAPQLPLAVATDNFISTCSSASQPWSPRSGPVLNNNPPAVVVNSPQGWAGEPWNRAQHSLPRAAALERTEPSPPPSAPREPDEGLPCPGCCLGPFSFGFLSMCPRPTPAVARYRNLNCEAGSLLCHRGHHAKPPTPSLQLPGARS
UniProt Q15831, sequence (whole entry, looked up): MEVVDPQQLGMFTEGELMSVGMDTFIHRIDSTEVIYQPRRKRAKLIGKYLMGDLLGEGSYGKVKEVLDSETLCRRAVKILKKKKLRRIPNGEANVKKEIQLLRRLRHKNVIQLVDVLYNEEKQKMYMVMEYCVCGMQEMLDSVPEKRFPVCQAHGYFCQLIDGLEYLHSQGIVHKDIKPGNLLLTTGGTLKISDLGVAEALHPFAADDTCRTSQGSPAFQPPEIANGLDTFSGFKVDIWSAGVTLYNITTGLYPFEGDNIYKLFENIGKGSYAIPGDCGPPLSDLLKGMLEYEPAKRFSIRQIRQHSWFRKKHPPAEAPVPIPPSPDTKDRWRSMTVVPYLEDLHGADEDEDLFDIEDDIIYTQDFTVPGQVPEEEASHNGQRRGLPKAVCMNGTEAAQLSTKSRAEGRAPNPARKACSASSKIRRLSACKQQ

Series 1 — action: inhibitor; tested at: 1 µM
SMILES: C=CC(=O)N1CCC[C@@H](n2nc(-c3ccc(Oc4ccccc4)cc3)c3c(N)ncnc32)C1
target | assay | inhibition
Tyrosine-protein kinase ABL1, phosphorylated (ABL1, Homo sapiens, UniProt P00519, Q252H) |  | 47%
Wee1-like protein kinase 2 (WEE2, Homo sapiens, UniProt P0C1S8) | enzyme activity | 18%
Serine/threonine-protein kinase WNK2 (WNK2, Homo sapiens, UniProt Q9Y3S1) | enzyme activity | 20%
Tyrosine-protein kinase JAK1, JH2 pseudokinase domain (JAK1, Homo sapiens, UniProt P23458) |  | 2%
Dual specificity testis-specific protein kinase 1 (TESK1, Homo sapiens, UniProt Q15569) | enzyme activity | 2%
Serine/threonine-protein kinase STK11 (STK11, Homo sapiens, UniProt Q15831) | enzyme activity | 21%

Series 2 — read-out: binding; method: radioligand binding; tested at: 10 µM
Target: D(1A) dopamine receptor (DRD1, Homo sapiens, UniProt P21728)
UniProt P21728, sequence (whole entry, looked up): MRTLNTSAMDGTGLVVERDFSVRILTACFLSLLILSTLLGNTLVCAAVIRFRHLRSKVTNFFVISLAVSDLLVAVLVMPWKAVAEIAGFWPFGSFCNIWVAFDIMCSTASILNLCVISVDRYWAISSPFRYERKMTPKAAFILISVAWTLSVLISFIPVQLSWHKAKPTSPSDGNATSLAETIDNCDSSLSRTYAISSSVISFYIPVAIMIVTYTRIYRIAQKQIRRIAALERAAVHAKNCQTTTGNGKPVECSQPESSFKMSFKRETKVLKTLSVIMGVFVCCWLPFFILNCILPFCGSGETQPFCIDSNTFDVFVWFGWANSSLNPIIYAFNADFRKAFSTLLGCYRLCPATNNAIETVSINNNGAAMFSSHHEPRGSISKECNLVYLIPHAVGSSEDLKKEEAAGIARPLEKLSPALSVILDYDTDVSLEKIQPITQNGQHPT
Compound | inhibition [%]
Cc1c(NC(=O)c2cc(C(N)=O)nc3cc(F)ccc23)c(C(F)(F)F)nn1Cc1ccc(C(C)(C)C)cc1 | 3.41
COc1cccc(CNC(=O)c2nc3scc(COCc4ccc(C(=O)O)cc4)c3c(=O)[nH]2)c1 | -6.24
CCCOc1ccc([C@H]2[C@H](C(=O)O)[C@@H](c3ccc4c(c3)OCO4)CN2CC(=O)Nc2c(CC)cccc2CC)cc1 | 17.3
Cc1cc(C)c(-n2ccn3nc(-c4cccnc4)cc23)cc1NC(=O)c1cc(C#N)cc(S(F)(F)(F)(F)F)c1 | 4.82
COCc1nc2cnc3cc(-c4c(C)noc4C)c(OC[C@H]4CCNC4)cc3c2n1[C@H](C)c1ccccc1 | 2.89
CC(C)(O)c1cncc(-c2nc3ccc(F)cc3n2C2CC2)c1 | 0.87
CC1=C(C#N)C(c2ccc3c(c2)c(NC(=O)c2ccccc2C)nn3C)C(C#N)=C(C)N1 | -27.7
Cc1nc(C2CCN(C(=O)c3ccc(OC(F)(F)F)cc3N)CC2)c2ncc(N3CCN(C)CC3)cc2n1 | 2.66

Series 3 — cell line: HaCaT; tested at: 100 µM; time: 36 h
Structure (SMILES) | viability [%]
O=C(O)c1cccc(-c2noc(-c3ccccc3F)n2)c1 | 95.1
Nc1nc(F)nc2c1ncn2[C@@H]1O[C@H](COP(=O)(O)O)[C@@H](O)[C@@H]1O | 64.6
COc1cc2nc(N3CCN(C(=O)c4ccco4)CC3)nc(N)c2cc1OC | 6.52
CC(C)C[C@H](NC(=O)[C@@H](O)[C@H](N)Cc1ccccc1)C(=O)O | 80.7
C[N+]1(CCCCC[N+]2(C)CCCC2)CCCC1 | 92.2
CCOc1nc2cccc(C(=O)O)c2n1Cc1ccc(-c2ccccc2-c2noc(=O)[nH]2)cc1 | 88.8
CC(=O)Oc1cc(C)c(OC(C)=O)c2ccccc12 | 8.55
CSc1nc2cc(Cl)c(Oc3cccc(Cl)c3Cl)cc2[nH]1 | 12.5
CN1CCC(OC(c2ccccc2)c2ccccc2)CC1 | 51.9
CO[C@H]1C(=O)[C@]2(C)[C@@H](OC)C[C@H]3OC[C@@]3(OC(C)=O)[C@H]2[C@H](OC(=O)c2ccccc2)[C@]2(O)C[C@H](OC(=O)[C@H](O)[C@@H](NC(=O)OC(C)(C)C)c3ccccc3)C(C)=C1C2(C)C | 64.7
O=C(O)Cc1cc(I)c(Oc2ccc(O)c(I)c2)c(I)c1 | 60.1

Series 4 — read-out: enzyme activity; action: inhibitor; tested at: 0.5 µM; relative to: control
Target: Casein kinase II subunit alpha' (CSNK2A2, Homo sapiens, UniProt P19784)
UniProt P19784, sequence (whole entry, looked up): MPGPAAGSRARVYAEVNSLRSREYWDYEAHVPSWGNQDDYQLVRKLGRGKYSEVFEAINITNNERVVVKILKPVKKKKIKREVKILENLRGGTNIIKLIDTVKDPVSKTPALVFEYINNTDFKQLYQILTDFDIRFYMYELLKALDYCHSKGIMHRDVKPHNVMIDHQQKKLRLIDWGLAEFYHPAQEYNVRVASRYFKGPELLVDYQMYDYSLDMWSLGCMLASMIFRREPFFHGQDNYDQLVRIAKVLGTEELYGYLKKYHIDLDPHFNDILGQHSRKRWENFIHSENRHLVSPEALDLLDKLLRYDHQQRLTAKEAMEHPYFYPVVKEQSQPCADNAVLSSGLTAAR
SMILES | remaining activity
CCOC(=O)c1c(C)[nH]c(/C=C2\C(=O)Nc3ccccc32)c1C | 94.7%
Oc1ccc(-c2nc(-c3ccncc3)c(-c3ccc(F)cc3)[nH]2)cc1 | 95.9%
OCC(O)CCON=C1C(c2c(O)[nH]c3ccccc23)=Nc2ccccc21 (stereo not shown) | 28.3%
CC(C)[C@H](CO)Nc1nc(Nc2cc(N)cc(Cl)c2)c2ncn(C(C)C)c2n1 | 106%
COc1cc2nccc(Oc3ccc(NC(=S)NC(=O)c4ccccc4C)cc3)c2cc1OC | 96.6%
COc1ccc(C(=O)Nc2sc3c(c2C(N)=O)CCCC3)cc1OC | 104%
CO[C@H]1C[C@@H]2CC[C@@H](C)[C@@](O)(O2)C(=O)C(=O)N2CCCC[C@H]2C(=O)O[C@H]([C@H](C)C[C@@H]2CC[C@@H](O)[C@H](OC)C2)CC(=O)[C@H](C)/C=C(\C)[C@@H](O)[C@@H](OC)C(=O)[C@H](C)C[C@H](C)/C=C/C=C/C=C/1C | 94.2%
N#CC(C#N)=C(N)/C(C#N)=C/c1ccc(O)cc1 | 102%
Cc1ccc(Nc2nccc(N(C)c3ccc4c(C)n(C)nc4c3)n2)cc1S(N)(=O)=O | 99.8%
C#Cc1cccc(Nc2ncnc3cc(OCCOC)c(OCCOC)cc23)c1 | 99.6%
NCCNc1ncc(C(N)=O)c(Nc2cccc(C(F)(F)F)c2)n1 | 89.8%
Nc1ccc2ncnc(NCCc3ccc(Oc4ccccc4)cc3)c2c1 | 103%
Cc1ccc(NC(=O)c2ccc(CN3CCN(C)CC3)cc2)cc1Nc1nc(-c2cccnc2)cs1 | 86.7%
CN(C)c1ccc(C=C2C(=O)Nc3ccccc32)cc1 | 98.6%
Nc1[nH]nc2nc3ccccc3nc12 | 94%

A few entries again (series 1):
target | assay | inhibition
Dual specificity testis-specific protein kinase 1 (TESK1, Homo sapiens, UniProt Q15569) | enzyme activity | 2%
Serine/threonine-protein kinase STK11 (STK11, Homo sapiens, UniProt Q15831) | enzyme activity | 21%
Wee1-like protein kinase 2 (WEE2, Homo sapiens, UniProt P0C1S8) | enzyme activity | 18%
Tyrosine-protein kinase ABL1, phosphorylated (ABL1, Homo sapiens, UniProt P00519, Q252H) |  | 47%
Serine/threonine-protein kinase WNK2 (WNK2, Homo sapiens, UniProt Q9Y3S1) | enzyme activity | 20%
Tyrosine-protein kinase JAK1, JH2 pseudokinase domain (JAK1, Homo sapiens, UniProt P23458) |  | 2%
